Measured values pooled from the literature.
Every numbered part comes from another study and shows a few of its results, in no order. Changes are numbered by the printed parent chain.

Study 1
Target: Interferon regulatory factor 5, full length, phosphomimetic (IRF5, Homo sapiens, UniProt Q13568-2, residues 1-514, K96S/S451D/S453D/S456D/S462D)
Method: protein-binding microarray
Form: double-stranded DNA, one strand shown
Matrix: in vitro
Tested at: 250 nM
Notes: 60-bp whole probe
Together with: salmon DNA 0.4 mg/ml
Relative to: random background probes
Reading: higher = stronger binding
Shared flanks, not repeated: GCCTAGCAC … GTCTTGATTCGCTTGACGCTGCTG
Sequence	log fluorescence [z-score]
TCAATTTTCTGAATGTCACTGTGCTAG	1.18
GGCTGTTTGGTCCTGAACCTGTGCTAG	-0.478
TTTTTTTTACTTCGGGTGACGTGCTAG	1.27
GACGTTATCAGTCTCGAGACGTGCTAG	1.23
TTAGGTATCGGGACCGGGTTAGTGCTA	1.9
TCATTTCTACTGTCTGTTACTGTGCTA	1.93
TTAGAACAGGGGTATCGATTAGTGCTA	2.35
TCACTTATCCTATCAGTACTGTGCTAG	0.98
GACGGTATAGACTATCGGGACGTGCTA	0.919
GACGATTTCAGTTCAGAGACGTGCTAG	1.34
TTAGGGATCGACACTGGGTTAGTGCTA	-0.0941
TTAGATTTCAGTTACGATTAGTGCTAG	2.54
TTAGATATCAGTATCGATTTGTGCTAG	7.16
TTAGGTCTCGGTATCGGTTGGTGCTAG	4.54
TTAGGTTTCGTGTTTCGGTTAGTGCTA	8.94
TTAGGTTGCCTTCTCCTTTAGTGCTAG	0.128
GACGGTATCGACTTTCGCGACGTGCTA	3.28
GACGATATGAGTTTCGAGACGTGCTAG	4.96

Study 2
Target: Sal-like protein 4, full length isoform B (SALL4, Homo sapiens, UniProt Q9UJQ4-2, residues 1-616)
Method: universal PBM
Form: double-stranded DNA, one strand shown
Matrix: in vitro
Tested at: not given
Notes: 8-mer, flanks averaged, mean of replicates
Reading: higher = stronger binding
Target sequence (chain): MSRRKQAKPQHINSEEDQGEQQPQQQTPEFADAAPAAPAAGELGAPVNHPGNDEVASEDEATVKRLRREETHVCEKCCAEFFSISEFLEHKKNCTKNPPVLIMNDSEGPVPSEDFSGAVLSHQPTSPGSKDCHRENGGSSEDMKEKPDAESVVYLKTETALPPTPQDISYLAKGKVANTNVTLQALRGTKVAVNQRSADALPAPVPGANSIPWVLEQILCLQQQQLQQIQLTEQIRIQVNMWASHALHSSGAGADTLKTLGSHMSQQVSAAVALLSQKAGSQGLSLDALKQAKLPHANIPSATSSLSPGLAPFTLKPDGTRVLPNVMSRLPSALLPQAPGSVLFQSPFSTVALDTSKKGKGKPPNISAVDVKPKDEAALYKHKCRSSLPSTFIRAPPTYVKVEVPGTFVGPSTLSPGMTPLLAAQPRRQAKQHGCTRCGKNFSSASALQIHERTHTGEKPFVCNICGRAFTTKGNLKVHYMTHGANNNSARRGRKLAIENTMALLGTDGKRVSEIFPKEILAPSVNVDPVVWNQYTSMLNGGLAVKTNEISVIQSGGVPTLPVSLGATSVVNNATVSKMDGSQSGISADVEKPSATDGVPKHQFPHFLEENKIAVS
Sequence	E-score
AAGTGTGT	0.152
GCAGTACA	-0.151
AGGTAAGC	-0.0516
ATCTTCCC	-0.0342
CGTTGTAA	0.156
AAAGCGGT	-0.11
TACTTACA	0.195
AAGCACTA	0.093
TACACGGA	0.163
ACGAAGAT	0.0854
AATGGTTG	0.0555
AAATTACT	0.349
ATCTTGTA	0.203
ACGCGTAT	0.127
AAAATCTG	0.0981
AGCGTTAC	-0.0438
ACGTCTCA	0.0259
GGATTACA	0.15
CTAGGGCC	-0.232
CCACCACA	0.0391
ATCCGTGG	-0.186
ACGTGGTG	-0.202
TATGCAAA	0.144
CAACGCTA	-0.144

Study 3
Target: Centromere-binding protein 1, full length, N-terminal tag (CBF1, Saccharomyces cerevisiae, UniProt P17106, residues 1-351)
Sequence of UniProt P17106 (whole entry, looked up): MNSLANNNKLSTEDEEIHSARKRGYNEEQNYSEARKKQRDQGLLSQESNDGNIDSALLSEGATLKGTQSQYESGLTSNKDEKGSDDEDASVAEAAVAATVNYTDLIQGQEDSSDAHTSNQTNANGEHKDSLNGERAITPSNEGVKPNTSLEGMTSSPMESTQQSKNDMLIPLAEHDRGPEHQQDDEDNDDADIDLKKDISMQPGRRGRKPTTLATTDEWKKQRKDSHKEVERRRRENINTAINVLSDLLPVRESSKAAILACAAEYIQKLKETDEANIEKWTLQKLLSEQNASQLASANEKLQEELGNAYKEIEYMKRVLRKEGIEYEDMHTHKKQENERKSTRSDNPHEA
Method: protein-binding microarray
Form: double-stranded DNA, one strand shown
Matrix: in vitro
Tested at: 0.8 µM
Notes: whole 60-bp probe, no competitor
Reading: higher = stronger binding
Shared flanks, not repeated: … GTCTTGATTCGCTTGACGCTGCTG
Sequence	fluorescence intensity [a.u.]
CTATTGTTCAGCCTTCACGTTCCTTAGCTACACTTC	551
CTAAGTTGTAAGTAACACGTTCCCTGAGAAACCTTC	548
GAAGATCAAGAAACGCACGCTTTACATCACACATAG	558
CTAAGATATGTTACTCACGCGTCGCGTCGCTCCTTC	566
TGTACGAAGCTATATGACACGATTATAGTAGTTAGG	535
GAAAATCATTACCAAAACGTGACGATTAACATATAG	1930
GAAATCCCCCTTACAAGCGTGCTCCTTTTCCTTTAG	509
GAATTCTGGGGTTACCACGATTACCAGCGGAGTTAG	479
GAACATTATCTACGTGATTATACATATAGTTATTAG	1050
GAAGCTTCTCTTTCTCGCCTGATAAAGTTGTTTTAG	511
GAATAACTCACTCATCACGCTGTTTCCGCTGAATAG	588
GAAACTGCTGTATCTGATGCCGTGAACGAGACATAG	582
GAAATATGTTCCGCTGATGTGATGTGCAAGATATAG	619
GAAAGACATATGATAAAGCTGATGTCTATTTTGTAG	523
CTATTAGTAGTATACTATCACATGTGGTGTAAATTC	2670
CTACCACGCCAACCAAGCCTTACCCTAACCTTATTC	552
GAAGTGACAAGAGGTGGTGACATAAAAATAACCTAG	600
GAAAAGGGTAGGAGTCACATCAGGTGTTTGTTGTAG	790

Study 4
Target: ABI1, truncated, D143A, DHFR fusion (Arabidopsis thaliana)
Method: DHFR PCA, deep sequencing
Matrix: yeast
Notes: methotrexate growth selection, single substitutions
Together with: (+)-ABA 2500 µM
Relative to: wild-type fitted maximum
Reading: higher = stronger binding
Starting sequence: PYL1, truncated, DHFR fusion (Arabidopsis thaliana); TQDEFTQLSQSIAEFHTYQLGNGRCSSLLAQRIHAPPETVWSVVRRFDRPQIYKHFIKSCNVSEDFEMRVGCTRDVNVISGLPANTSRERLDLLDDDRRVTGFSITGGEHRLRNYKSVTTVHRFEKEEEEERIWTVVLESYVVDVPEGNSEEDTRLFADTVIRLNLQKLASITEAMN; partner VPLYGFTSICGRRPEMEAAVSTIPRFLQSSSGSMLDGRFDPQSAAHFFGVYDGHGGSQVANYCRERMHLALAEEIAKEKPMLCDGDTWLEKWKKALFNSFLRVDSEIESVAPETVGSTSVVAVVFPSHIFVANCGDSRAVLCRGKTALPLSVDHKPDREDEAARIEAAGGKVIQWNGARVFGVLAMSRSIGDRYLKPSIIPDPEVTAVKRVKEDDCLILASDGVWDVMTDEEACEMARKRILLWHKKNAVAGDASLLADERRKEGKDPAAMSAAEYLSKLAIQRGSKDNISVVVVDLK
Variant	relative binding score [%]
V76G	8.51
S11T	87.8
V76C	92.2
N22P	102
V62W	88.5
K126A	103
R69I	100
D153M	54.6
S42V	93.5
R90P	-6.48
I172S	86.4
E89Q	65
V76W	-6.28
R90S	89.7
R74E	0.332
N177L	109
A84C	85.3

Study 5
Target: CCND1, cyclin fold, Cln2 fusion (human)
Method: yeast growth competition, sequencing
Matrix: yeast
Notes: weak parent motif
Relative to: not given
Reading: higher = stronger binding
Starting sequence: FOXM1 docking peptide (human); PHLARPIKVESPP; partner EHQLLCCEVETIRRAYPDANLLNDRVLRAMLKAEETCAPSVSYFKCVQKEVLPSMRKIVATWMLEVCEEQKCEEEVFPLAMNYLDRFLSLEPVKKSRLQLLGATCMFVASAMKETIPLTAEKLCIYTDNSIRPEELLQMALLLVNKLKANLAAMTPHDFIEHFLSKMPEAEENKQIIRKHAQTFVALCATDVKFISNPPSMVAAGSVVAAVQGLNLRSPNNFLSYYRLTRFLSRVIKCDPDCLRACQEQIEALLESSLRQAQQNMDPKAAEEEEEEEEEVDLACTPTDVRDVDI
Variant	normalised enrichment score
E10A	0.418
P6A	-0.0424
R5A	0.365
S11A	0.49
V9A	0.117
P12A	0.11

Excerpt of the above (study 2):
Sequence	E-score
ACGTCTCA	0.0259
AAATTACT	0.349
CTAGGGCC	-0.232
TACTTACA	0.195
ATCTTGTA	0.203
AGGTAAGC	-0.0516
AAGCACTA	0.093
ATCCGTGG	-0.186
ACGAAGAT	0.0854
